Results of several laboratories.
Numbered parts are unrelated; each lists some results of a single study. Changes are numbered by the printed parent chain.

Study 1
Target: ABI1, truncated, D143A, DHFR fusion (Arabidopsis thaliana)
Method: DHFR PCA, deep sequencing
Sample: yeast
Setting: methotrexate growth selection, single substitutions
Together with: (+)-ABA 58 µM
Baseline: wild-type fitted maximum
Reading: higher = stronger binding
Starting sequence: PYL1, truncated, DHFR fusion (Arabidopsis thaliana); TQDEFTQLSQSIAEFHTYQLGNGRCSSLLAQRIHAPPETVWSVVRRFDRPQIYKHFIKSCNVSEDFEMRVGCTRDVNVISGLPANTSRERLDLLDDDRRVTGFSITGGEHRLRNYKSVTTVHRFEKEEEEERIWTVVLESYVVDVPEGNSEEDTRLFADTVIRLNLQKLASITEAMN
| Variant | relative binding score |
| --- | --- |
| S59N | 74.4% |
| A35Y | -0.0627% |
| G81S | 36.2% |
| A30C | 90% |
| F66T | 72.1% |
| Q19W | 66.4% |
| G21E | 92.9% |
| C72S | 82.4% |
| E14A | 65.1% |
| S171L | 79.9% |
| R123H | 99% |
| F15I | 45.7% |
| S26R | 60.9% |
| D65E | 82% |
| Y53P | -6.37% |
| Q31I | 47.6% |

Study 2
Target: CCNF, cyclin fold, Cln2 fusion (human)
Method: yeast growth competition, sequencing
Sample: yeast
Setting: strong parent motif
Baseline: not given
Reading: higher = stronger binding
Starting sequence: BRCA2 docking peptide (human); PSIKRNLLNEFDR
| Variant | normalised enrichment score |
| --- | --- |
| D12I | 2.19 |
| K4S | 2.79 |
| P1S | 1.85 |
| N6W | 2.02 |
| P1E | 3.07 |
| E10H | 1.9 |
| L8C | 2.22 |
| P1Q | 4.38 |
| L8F | 5.12 |
| E10T | -0.0302 |
| L8W | 0.872 |
| P1M | 2.94 |
| L8Q | 1.05 |
| N6L | 1.29 |
| N9F | 3.97 |
| K4C | 5.67 |
| I3Y | 1.75 |

Study 3
Target: Ras GTPase-activating protein-binding protein 1, RRM domain (G3BP1, Homo sapiens, UniProt Q13283)
UniProt Q13283, sequence (whole entry, looked up): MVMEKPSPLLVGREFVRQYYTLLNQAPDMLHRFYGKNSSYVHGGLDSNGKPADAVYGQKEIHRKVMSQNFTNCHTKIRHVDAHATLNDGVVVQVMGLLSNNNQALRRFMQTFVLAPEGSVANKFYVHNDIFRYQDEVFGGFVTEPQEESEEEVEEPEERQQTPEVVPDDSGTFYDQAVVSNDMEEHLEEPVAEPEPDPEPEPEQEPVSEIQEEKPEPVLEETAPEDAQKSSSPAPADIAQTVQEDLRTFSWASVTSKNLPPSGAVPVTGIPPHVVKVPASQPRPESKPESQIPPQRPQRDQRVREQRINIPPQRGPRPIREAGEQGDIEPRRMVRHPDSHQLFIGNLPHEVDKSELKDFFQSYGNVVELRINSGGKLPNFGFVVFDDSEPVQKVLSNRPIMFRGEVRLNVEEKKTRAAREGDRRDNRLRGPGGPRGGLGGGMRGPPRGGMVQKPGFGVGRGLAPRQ
Method: RNA Bind-n-Seq
Form: RNA
Sample: in vitro
Concentration: 1 µM
Setting: whole 134-nt RNA, ends assumed
Together with: 150 mM KCl
Baseline: input library
Reading: higher = stronger binding
| Oligonucleotide | log2 enrichment |
| --- | --- |
| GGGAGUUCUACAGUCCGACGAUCGUCCUGUGCUACACAUCGUAUGUACCGAAUCAAAUUUUUAAAUUUAAAUUUUUUUAAAAAAGUAUUAUGUUACGCCGUUCGGAUCUGCACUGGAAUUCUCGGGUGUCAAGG | -0.628 |
| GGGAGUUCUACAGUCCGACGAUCUGGCCCUGGUGGCAUGCGGGGAGGAAGAGGUGGCCUCAUGGAUCGUGGUGGUCCCGGUGGAAUGUUCAGAGGUGGCCGUGGUGGAGACAGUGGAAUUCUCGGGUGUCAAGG | 1.1 |
| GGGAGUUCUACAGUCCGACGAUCACCAUGCAGGUGGGCAUCUUUGGGAAGUGGGGCAAGGGGGGGAUAGGGAGGGGGGUAACACUUUGGGAACAGGUGGUCCCAGCUCGUUUCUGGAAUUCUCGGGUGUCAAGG | 0.858 |
| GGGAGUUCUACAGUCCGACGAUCCUCAAGUCCUGUGCUACACAUCGUAUGUACCGAAUCGGGCCGGGCCGGGCCGGAAAGUAUUAUGUUACGCCGUUCGGAUCUGCACUUCCAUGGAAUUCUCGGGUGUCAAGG | -1.11 |
| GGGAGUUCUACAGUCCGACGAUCAUUAUAGACUUGAUCAAAACACAGGAAAAGGCAACUCCCAGGAACUUUCCGCCACGAUUCCAGGAUGGAUAUUACAGCUGACAGCUUUUCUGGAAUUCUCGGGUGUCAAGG | -0.0847 |
| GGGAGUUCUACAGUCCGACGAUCUUUAAUGUCUGCGGCACAAUGCCUGUCUGUGGGACCAUCCUGGGAAAACCUGCUUCUGGCUGUGAGGCAGAAACCCAAACUGAAGAGCUCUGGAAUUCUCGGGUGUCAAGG | 0.179 |
| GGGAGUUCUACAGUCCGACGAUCCUCAAGUCCUGUGCUACACAUCGUAUGUACCGAAUCGGGGCGGGGCGGGCGGGGAAAGUAUUAUGUUACGCCGUUCGGAUCUGCACUUCCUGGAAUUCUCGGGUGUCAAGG | 0.364 |
| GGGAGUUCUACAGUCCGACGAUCAGUCCUGUGCUACACAUCGUAUGUACCGAAUCGGGGUUUUUGGGGAGGGGUUUGGGGAAAGUAUUAUGUUACGCCGUUCGGAUCUGCACUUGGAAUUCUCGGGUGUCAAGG | 0.741 |
| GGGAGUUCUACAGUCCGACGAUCUAACUUUAGAGGAGGAUCUGAUCGAUAUGGCAGUGGACGUGGAUUUGGGGAUGGCUAUAAUGGGUAUGGAGGAGGACCUGGAGGUGGCAAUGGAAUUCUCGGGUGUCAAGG | -0.761 |

Other studies, line by line
| Substance | target | test | system | conditions | scale | measurement | result |
| --- | --- | --- | --- | --- | --- | --- | --- |
| PhoQ, residues 284 288 289 292 302 303 SLANKL | PhoP, residues 12 14 15 18 19 GQALL (Escherichia coli, UniProt P23836) | Sort-seq, item: YFP reporter | E. coli | PhoQ-PhoP variant library, together with: 10 µM Mg2+ | baseline: high Mg2+ state, higher = stronger signaling | fold induction | 18.4 |

A few entries again (study 2):
| Variant | normalised enrichment score |
| --- | --- |
| E10T | -0.0302 |
| L8W | 0.872 |
| N6L | 1.29 |
| I3Y | 1.75 |
